Measurements collected from several papers.
Numbered parts are unrelated; each lists some results of a single study. Positions count from the first letter of the parent shown.
Sequence of UniProt P11309 (whole entry, looked up): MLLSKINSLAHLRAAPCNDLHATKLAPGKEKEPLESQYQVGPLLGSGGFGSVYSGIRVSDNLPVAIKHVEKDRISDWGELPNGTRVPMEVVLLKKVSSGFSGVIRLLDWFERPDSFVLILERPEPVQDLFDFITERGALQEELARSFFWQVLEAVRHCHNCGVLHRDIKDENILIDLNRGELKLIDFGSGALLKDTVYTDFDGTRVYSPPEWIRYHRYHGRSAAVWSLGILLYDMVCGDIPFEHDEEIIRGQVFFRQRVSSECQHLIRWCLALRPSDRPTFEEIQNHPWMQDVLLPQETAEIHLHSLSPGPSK

Block 1
Target: Histone acetyltransferase KAT6A, winged helix 1, GST fusion (KAT6A, Homo sapiens, UniProt Q92794, residues 1-85)
Method: protein binding microarray
Form: double-stranded DNA, one strand shown
Sample: in vitro
Tested at: not given
Setting: 8-mer, flanks averaged, mean of 2 arrays, mostly near background
Relative to: not given
Reading: higher = stronger binding
Target sequence (chain): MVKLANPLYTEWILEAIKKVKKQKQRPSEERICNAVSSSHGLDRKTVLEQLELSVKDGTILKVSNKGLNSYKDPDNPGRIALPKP
Strand	E-score
CCTAAAAG	-0.149
CATTACTC	-0.0543
ACGGAGCC	0.23
CTGTTGTC	-0.0833
CGTAATCC	0.195
CAATCAGC	-0.0179
ATTGAAAT	-0.182
CCGACCCG	0.374

Block 2
Target: TAR DNA-binding protein 43, full length, His tag (TARDBP, Homo sapiens, UniProt Q13148, residues 1-414)
Method: RNA Bind-n-Seq
Form: RNA
Sample: in vitro
Tested at: 20 nM
Setting: 6-mer, flanks averaged, single round
With: 150 mM LiCl
Relative to: input library
Reading: higher = stronger binding
Strand	6-mer enrichment (R)
AAAAAC	0.905
UGUAGC	1.06
ACGCGG	0.942
AAGUUU	1.01
CAAGGA	0.842
UAAGUG	1.16
UGCCGA	0.916
GUGUUG	1.68

Block 3
Target: CCND3, cyclin fold, Cln2 fusion (human)
Method: yeast growth competition, sequencing
Sample: yeast
Setting: weak parent motif
Relative to: not given
Reading: higher = stronger binding
Starting sequence: SLBP docking peptide (human); ARYKRKLLINDFG
Variant	normalised enrichment score
ARYKRKLLIHDFG [N10H]	0.0367
ARYKRKLLINDPG [F12P]	0.19
ARYKRSLLINDFG [K6S]	0.0775
ARYKWKLLINDFG [R5W]	-0.02
ARYMRKLLINDFG [K4M]	0.14
ARYKRKLLINDWG [F12W]	0.115
ARYKVKLLINDFG [R5V]	0.151
ARYKRFLLINDFG [K6F]	0.0416

Further values, each from its own experiment
Compound	target	test	setting	how to read	measurement	value
O=C(NC(NC(=S)Nc1ccc(F)c([N+](=O)[O-])c1)C(Cl)(Cl)Cl)C(c1ccccc1)c1ccccc1 (stereo not shown)	Serine/threonine-protein kinase pim-1 (PIM1, Homo sapiens, UniProt P11309)	enzyme activity, inhibitor	0.5 µM	relative to: control	remaining activity	101%
